Assay results gathered from unrelated publications.
Parts stem from different laboratories: compare values within a part only. Positions count from the first letter of the parent shown.

Set 1 — technique: RNA Bind-n-Seq; form: RNA; medium: in vitro; tested at: 1 µM; setting: whole 134-nt RNA, ends assumed; together with: 150 mM KCl; relative to: input library; direction: higher = stronger binding; endpoint: log2 enrichment
Target: Ras GTPase-activating protein-binding protein 1, C-terminal RGG region (G3BP1, Homo sapiens, UniProt Q13283)
Sequence of UniProt Q13283 (whole entry, looked up): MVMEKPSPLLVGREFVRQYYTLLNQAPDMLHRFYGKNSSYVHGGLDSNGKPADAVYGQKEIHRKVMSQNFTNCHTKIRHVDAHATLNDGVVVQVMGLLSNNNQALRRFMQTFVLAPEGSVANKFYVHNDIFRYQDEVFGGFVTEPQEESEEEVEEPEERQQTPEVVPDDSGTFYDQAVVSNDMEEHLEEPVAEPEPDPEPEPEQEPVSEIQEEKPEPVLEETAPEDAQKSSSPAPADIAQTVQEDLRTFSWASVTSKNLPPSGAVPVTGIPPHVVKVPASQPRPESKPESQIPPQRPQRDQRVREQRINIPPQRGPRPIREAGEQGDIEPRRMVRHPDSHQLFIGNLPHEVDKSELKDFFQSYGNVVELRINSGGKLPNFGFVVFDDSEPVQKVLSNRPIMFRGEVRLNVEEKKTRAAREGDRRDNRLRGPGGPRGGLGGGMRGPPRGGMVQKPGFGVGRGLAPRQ
Shared flanks, not repeated: GGGAGUUCUACAGUCCGACGAUC … UGGAAUUCUCGGGUGUCAAGG
CCUGUGCUACACAUCGUAUGUACCGAAUCGGGGUUUUUGGGGUUUUUUUGGGGUUUGGGGAAAGUAUUAUGUUACGCCGUUCGGAUCUGC: 0.503
UAACUUUAGAGGAGGAUCUGAUGGAUAUGGCAGUGGACGUGGAUUUGGGGAUGGCUAUAAUGGGUAUGGAGGAGGACCCGGAGGUGGCAA: -1.06
GUCCUGUGCUACACAUCGUAUGUACCGAAUCGGGUUUUUGGUUUUUGGGGUUUUUGGGAAAGUAUUAUGUUACGCCGUUCGGAUCUGCAC: -0.827
AAGUCCUGUGCUACACAUCGUAUGUACCGAAUCGGAAAAAAAGGUUUUUGGUUUGGAAAGUAUUAUGUUACGCCGUUCGGAUCUGCACUU: -2.39
UGUGCUACACAUCGUAUGUACCGAAUCGGGGCCCCCCCGGGGCCCCCCCGGGCCCCCCCGGGGAAAGUAUUAUGUUACGCCGUUCGGAUC: -2.72
UCCUGUGCUACACAUCGUAUGUACCGAAUCGGGGUUUUUUUGGGGUUUGGGGAAAGGGGAAAGUAUUAUGUUACGCCGUUCGGAUCUGCA: 1.99
UCCUGUGCUACACAUCGUAUGUACCGAAUCGGCCCCCGGGGCCCCCGGGGCCCCCGGGGAAAGUAUUAUGUUACGCCGUUCGGAUCUGCA: -1.95
UGGGAGGUGGAUUUUGUUUAUUUUUUUAGCUCAUUUCCAGGGGUGGGCAUUUUUUUUUAAUAUGUGUCAUGAAUAAAGUUGUUUUUGAAA: 3.36

Set 2 — technique: Sort-seq; measured: YFP reporter; medium: E. coli; setting: PhoQ-PhoP variant library; together with: 10 µM Mg2+; relative to: high Mg2+ state; direction: higher = stronger signaling; endpoint: fold induction
Molecule: PhoQ, residues 284 288 289 292 302 303 TLASMF
PhoP, residues 12 14 15 18 19 HHYTI (Escherichia coli, UniProt P23836): 7.52
PhoP, residues 12 14 15 18 19 SFCSL (Escherichia coli, UniProt P23836): 4.08
PhoP, residues 12 14 15 18 19 AYFRS (Escherichia coli, UniProt P23836): 10.1

Set 3 — target: CCNE1, cyclin fold, Cln2 fusion (human); technique: yeast growth competition, sequencing; medium: yeast; setting: strong parent motif; relative to: not given; direction: higher = stronger binding; endpoint: normalised enrichment score
Parent: RBL2 docking peptide (human); STTRRRLFVENDS
STTRRRLSVENDS [F8S]: -0.373
STTRFRLFVENDS [R5F]: 0.376
STTRRRLFVENDI [S13I]: 5.66
STGRRRLFVENDS [T3G]: 4.36
STNRRRLFVENDS [T3N]: 0.127
STTRYRLFVENDS [R5Y]: 0.84
STTRRRLFVENDF [S13F]: 6.32
STTRRRLFVEADS [N11A]: 5.14
HTTRRRLFVENDS [S1H]: 5.25

Set 4 — technique: universal PBM; form: double-stranded DNA, one strand shown; medium: in vitro; tested at: 600 nM; direction: higher = stronger binding; endpoint: E-score
Target: Sal-like protein 4, full length isoform A (SALL4, Homo sapiens, UniProt Q9UJQ4, residues 1-1053)
Sequence of UniProt Q9UJQ4 (whole entry, looked up): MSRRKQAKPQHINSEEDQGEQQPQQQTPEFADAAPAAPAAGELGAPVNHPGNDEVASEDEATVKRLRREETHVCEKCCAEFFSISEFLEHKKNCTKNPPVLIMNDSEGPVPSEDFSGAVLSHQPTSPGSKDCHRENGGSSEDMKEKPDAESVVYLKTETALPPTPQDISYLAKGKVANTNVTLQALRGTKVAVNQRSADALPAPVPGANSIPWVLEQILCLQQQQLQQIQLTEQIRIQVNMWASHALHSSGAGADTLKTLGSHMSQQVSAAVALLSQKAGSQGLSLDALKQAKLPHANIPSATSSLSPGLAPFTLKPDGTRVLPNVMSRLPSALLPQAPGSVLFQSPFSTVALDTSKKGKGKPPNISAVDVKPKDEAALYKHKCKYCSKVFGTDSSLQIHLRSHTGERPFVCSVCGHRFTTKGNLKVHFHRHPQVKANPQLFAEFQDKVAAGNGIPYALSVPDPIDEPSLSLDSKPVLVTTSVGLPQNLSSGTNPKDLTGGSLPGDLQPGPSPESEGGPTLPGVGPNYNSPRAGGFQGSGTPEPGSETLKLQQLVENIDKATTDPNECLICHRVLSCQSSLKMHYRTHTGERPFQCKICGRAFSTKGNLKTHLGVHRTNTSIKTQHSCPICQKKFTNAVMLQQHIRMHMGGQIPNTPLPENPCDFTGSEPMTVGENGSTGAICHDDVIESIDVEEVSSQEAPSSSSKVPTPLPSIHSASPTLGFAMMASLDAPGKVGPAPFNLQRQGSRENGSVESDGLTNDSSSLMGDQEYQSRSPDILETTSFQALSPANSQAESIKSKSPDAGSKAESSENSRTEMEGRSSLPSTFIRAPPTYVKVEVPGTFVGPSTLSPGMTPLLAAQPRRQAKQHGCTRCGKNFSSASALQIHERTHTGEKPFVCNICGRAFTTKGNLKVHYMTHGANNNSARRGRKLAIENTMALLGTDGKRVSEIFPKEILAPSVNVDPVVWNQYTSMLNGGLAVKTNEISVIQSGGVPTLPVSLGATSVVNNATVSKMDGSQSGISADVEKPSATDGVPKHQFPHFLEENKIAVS
Setting: 8-mer, flanks averaged, mean of replicates
CATGATCG: 0.127
ACACGTGT: 0.0401
CGTGCACG: -0.054
TAAGAAAA: 0.243
GACTACGC: -0.189
CTCCAACC: -0.0576
GCAAGCCC: -0.292
GGCGTACC: -0.281
AGGCGATC: -0.183
AGGTCGTC: -0.155
ATTGGTGG: 0.17
AACGCCCG: -0.215
CGGCCAAA: -0.087

Repeated from above (set 2):
PhoP, residues 12 14 15 18 19 HHYTI (Escherichia coli, UniProt P23836): 7.52
PhoP, residues 12 14 15 18 19 SFCSL (Escherichia coli, UniProt P23836): 4.08
PhoP, residues 12 14 15 18 19 AYFRS (Escherichia coli, UniProt P23836): 10.1
